{"data": "Results from different studies", "organism": "Enterobacter cloacae"}
{"Structure (SMILES)": "COc1ccc2c(ccc3oc([N+](=O)[O-])c(C)c32)c1", "method": "REMA", "measurement": "MIC90", "result": "> 32 µg/mL"}
{"Structure (SMILES)": "CS(=O)(=O)Nc1ncn(-c2cc(F)c(COc3ccc(OS(=O)(=O)F)cc3)c(F)c2)n1", "measurement": "MIC", "result": "> 50 µM"}
{"Structure (SMILES)": "O=[N+]([O-])c1cc2c(ccc3c2ccc2cc([N+](=O)[O-])oc23)o1", "method": "REMA", "measurement": "MIC90", "result": "> 32 µg/mL"}
{"Structure (SMILES)": "CC[C@H](C)CCCCC(=O)N[C@@H](CCN)C(=O)N[C@H](C(=O)N[C@@H](CCN)C(=O)N[C@H]1CCNC(=O)[C@H]([C@@H](C)O)NC(=O)[C@H](CCN)NC(=O)[C@H](CCN)NC(=O)[C@H](CC(C)C)NC(=O)[C@@H](CC(C)C)NC(=O)[C@H](CCN)NC1=O)[C@@H](C)O", "strain": "BNCC 185928", "measurement": "MIC", "result": "> 64 µg/mL"}
{"Structure (SMILES)": "O=[N+]([O-])c1cc2cc3ccc4oc([N+](=O)[O-])cc4c3cc2o1", "method": "REMA", "measurement": "MIC90", "result": "> 32 µg/mL"}
{"Structure (SMILES)": "CCCCCCCCCC(=O)N[C@@H](Cc1c[nH]c2ccccc12)C(=O)N[C@H](CC(N)=O)C(=O)N[C@@H](CC(=O)O)C(=O)N[C@@H]1C(=O)NCC(=O)N[C@@H](CCCN)C(=O)N[C@@H](CC(=O)O)C(=O)N[C@H](C)C(=O)N[C@@H](CC(=O)O)C(=O)NCC(=O)N[C@H](CO)C(=O)N[C@@H]([C@H](C)CC(=O)O)C(=O)N[C@@H](CC(=O)c2ccccc2N)C(=O)O[C@@H]1C", "strain": "clinical isolate", "measurement": "MIC", "result": "inactive"}
{"Structure (SMILES)": "Cn1c(=O)ccc2ccc(F)c(CCNC[C@H]3CN(c4cnc5c(n4)NC(=O)CO5)C(=O)O3)c21", "measurement": "MIC90", "result": "1 µg/mL"}
{"Structure (SMILES)": "CC1=C[C@@H]2CN(C(=O)N2OS(=O)(=O)O)[C@@H]1C(N)=O", "strain": "ATCC 2468, NDM-positive", "setting": "compound alone", "measurement": "MIC", "result": "> 128 µg/mL"}
{"Structure (SMILES)": "CC[C@H](C)[C@H](NC(=O)[C@H](C)NC(=O)[C@H](CCCCN)NC(=O)[C@H](CC(C)C)NC(=O)[C@H](C)NC(=O)[C@@H](NC(=O)[C@H](Cc1c[nH]cn1)NC(=O)[C@H](CC(C)C)NC(=O)[C@@H](NC(=O)[C@@H](NC(=O)[C@H](CCCCN)NC(=O)[C@H](C)NC(=O)[C@H](C)NC(=O)[C@H](CO)NC(=O)[C@H](CCCCN)NC(=O)[C@H](Cc1ccccc1)NC(=O)[C@@H](NC(=O)[C@H](CCCCN)NC(=O)[C@H](CC(C)C)NC(=O)[C@H](Cc1ccccc1)NC(=O)[C@H](CO)NC(=O)[C@H](CCCCN)NC(=O)[C@H](Cc1c[nH]c2ccccc12)NC(=O)[C@H](CCCCN)NC(C)=O)[C@@H](C)O)[C@@H](C)O)C(C)C)[C@@H](C)O)C(=O)N[C@@H](CO)C(=O)N[C@@H](CO)C(N)=O", "setting": "geometric mean", "measurement": "MIC", "result": "4 µg/mL"}
{"note": "A few entries again:"}
{"Structure (SMILES)": "CC1=C[C@@H]2CN(C(=O)N2OS(=O)(=O)O)[C@@H]1C(N)=O", "strain": "ATCC 2468, NDM-positive", "setting": "compound alone", "measurement": "MIC", "result": "> 128 µg/mL"}
